Assay results gathered from unrelated publications.
“And” joins repeats or separate records; there may be more than shown. In brackets after ≈: the same amount, converted by molar mass.

SMILES	target or system	assay	system	conditions	scale	measurement	value
CC(C)(C)NCC(SS(=O)(=O)O)c1ccccc1 (stereo not shown)	Schistosoma mansoni		infected mice	200 mg/kg single, day 42, perfusion day 56	baseline: vehicle	female worm burden reduction	89%
C=CC(=O)Nc1cccc(Cn2ncc3cnc(Nc4cnn(CCOC)c4)nc32)c1	CDK5 human	binding, KINOMEscan		100 nM	lower = stronger binding	percent of control	97%
C=C[C@]1(C)C[C@@H](OC(=O)CSc2ccc(NC(=O)c3ccco3)cc2)[C@]2(C)[C@H](C)CC[C@]3(CCC(=O)[C@H]32)[C@@H](C)[C@@H]1O	Mycoplasma gallisepticum		infected chickens	intramuscular, 70 mg/kg daily x3, scale 0 to 4	direction not given	air sac lesion score	1 and 3 and 2 and 0
CN1CCCNC(=O)c2cccc(c2)C(=O)NCCCN(C)CCCNc2cccc3c2C(=O)c2cccc(c2C3=O)NCCC1	SAS	RNA-Seq, item: MDC1 mRNA		1 µM, 6 h	baseline: untreated cells	log2 fold change	1.15
CCN(CC)CC(=O)Nc1cccc(-n2cc(-c3ccc4ccc(-c5cn(-c6cccc(NC(=O)CN(CC)CC)c6)nn5)cc4c3)nn2)c1	RCC4	PCR angiogenesis array, item: NOTCH4		5 x IC50, 4 h, normoxia	baseline: untreated	fold regulation	1.03
CNS(=O)(=O)Nc1nccc(Cc2c(C)c3ccc(Oc4ncccc4F)cc3oc2=O)c1F	CAL-148	cell viability		7 days		IC50	> 1000 nM
C=C(NC(=O)c1csc(-c2nc3c(cc2O)-c2nc(cs2)C(=O)NC(C(C)O)C(=O)NC(=C(C)OC)c2nc(cs2)C(=O)NC2c4nc(cs4)C(=O)NC(COC(=O)c4c5c6c(cccc6n4O)COC(=O)C(OC4CC(C)(O)C(N(C)C)C(C)O4)C2OC5)c2nc-3cs2)n1)C(N)=O (stereo not shown)	Enterococcus faecalis	agar dilution	vancomycin-intermediate, 20 isolates			MIC50	0.0156 µg/mL (≈ 0.0109 µM)
C=CC(=O)N1[C@H](c2ccc3c(c2)OCO3)c2[nH]c3ccccc3c2C[C@@H]1C(=O)N1CCN(C)CC1	human cyclin E1 N112C-3xFLAG:CDK2	co-IP with TMT proteomics, item: NCL		concentration not given, P19338	baseline: wild type DMSO	relative co-enrichment	112%
Cc1ncsc1-c1ccc(C(C)NC(=O)C2CC(O)CN2C(=O)C(NC(=O)CCCCCCCCCCN2CCCC(Nc3ncc(Cl)c(Nc4ccccc4S(=O)(=O)C(C)C)n3)C2)C(C)(C)C)cc1 (stereo not shown)	22Rv1	RNA-seq, item: MEPCE mRNA		concentration not given	baseline: DMSO	log2 fold change	-1.68
COC1CN([C@H]2CC[C@H]([C@@]3(C)Oc4c(Cl)cc(C(=O)NCc5c(SC)cc(C)[nH]c5=O)c(C)c4O3)CC2)C1		RNA-seq, item: FAM131B mouse homolog	mouse, HT-1376 xenograft, whole blood	dose not given	baseline: vehicle	log2 fold change	0.789
N=C(N)NCCC[C@@H]1NC(=O)[C@H](CCCNC(=N)N)NC(=O)[C@@H](C(c2ccccc2)c2ccccc2)NC(=O)[C@H](Cc2c[nH]c3ccccc23)NC(=O)[C@@H](C(c2ccccc2)c2ccccc2)NC(=O)[C@@H](CCCNC(=N)N)NC(=O)[C@@H](CCCNC(=N)N)NC1=O	Candida albicans		ATCC 60193	2 x MIC, 24 h, preformed biofilm		biofilm mass reduction	59%
Nc1ncc(-c2cc(-c3cnn(CC(F)(F)F)c3)ncc2F)nc1C(=O)NC1CNCC(F)C1 (stereo not shown)	MARK4	KINOMEscan		1 µM	baseline: DMSO control	remaining binding	54%
Cn1ncc2cc(-c3cncc(Cl)c3N3CCC4(CCNC4=O)CC3)ccc21	LS174T	gene expression, microarray, item: NFE2L2 mRNA		concentration not given, 4 h	baseline: untreated cells	log2 fold change	-1.24
